Results collected from several papers.
Each numbered part is a random draw from the data of one study; scales do not carry over between parts.
Sequence of UniProt Q9NYY3 (whole entry, looked up): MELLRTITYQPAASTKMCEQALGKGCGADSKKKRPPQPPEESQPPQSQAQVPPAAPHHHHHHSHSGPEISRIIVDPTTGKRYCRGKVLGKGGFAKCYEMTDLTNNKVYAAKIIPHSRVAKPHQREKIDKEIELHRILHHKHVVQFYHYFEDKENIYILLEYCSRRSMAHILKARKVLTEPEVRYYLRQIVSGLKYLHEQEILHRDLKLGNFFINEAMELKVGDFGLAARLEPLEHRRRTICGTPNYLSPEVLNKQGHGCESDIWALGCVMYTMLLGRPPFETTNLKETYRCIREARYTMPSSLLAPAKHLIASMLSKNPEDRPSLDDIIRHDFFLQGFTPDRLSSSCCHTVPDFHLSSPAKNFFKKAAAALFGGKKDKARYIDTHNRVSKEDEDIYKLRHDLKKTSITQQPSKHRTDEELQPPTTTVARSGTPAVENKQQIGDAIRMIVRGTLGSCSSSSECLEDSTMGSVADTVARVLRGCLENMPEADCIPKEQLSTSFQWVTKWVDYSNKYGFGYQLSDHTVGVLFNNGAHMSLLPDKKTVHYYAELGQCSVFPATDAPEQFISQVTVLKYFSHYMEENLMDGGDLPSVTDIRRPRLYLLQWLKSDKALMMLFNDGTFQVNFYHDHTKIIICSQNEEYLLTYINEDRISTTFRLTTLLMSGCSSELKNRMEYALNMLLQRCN

Set 1 — method: aptamer microarray, sandwich; form: DNA with 2'F-ANA; medium: in vitro; concentration: 200 nM; added: Cy3 exosite-II aptamer, 400 nM; reading: higher = stronger binding; sequence: GGTTGGTGTGGTTGG
Target: Prothrombin, mature alpha-thrombin (F2, Homo sapiens, UniProt P00734)
Notes: whole 15-mer aptamer, many near background
Modification | mean fluorescence intensity
2'F-ANA at 1 5 6 7 8 | 61.9 a.u.
2'F-ANA at 1 4 8 10 11 15 | 55.3 a.u.
2'F-ANA at 1 5 9 14 15 | 61.8 a.u.
2'F-ANA at 4 6 8 10 15 | 74.6 a.u.
2'F-ANA at 2 4 6 7 8 9 11 12 14 15 | 101 a.u.
2'F-ANA at 1 2 8 10 13 15 | 57.3 a.u.
2'F-ANA at 2 5 6 7 8 10 12 14 | 68 a.u.
2'F-ANA at 1 2 4 8 10 11 13 14 15 | 49.2 a.u.

Set 2 — method: protein-binding microarray; form: double-stranded DNA, one strand shown; medium: in vitro; concentration: 2200 nM top; notes: 60-bp whole probe; added: salmon DNA 0.4 mg/ml; baseline: random background probes; reading: higher = stronger binding; shared flanks, not repeated: GCCTAGCAC … GTCTTGATTCGCTTGACGCTGCTG
Target: Interferon regulatory factor 7, full length, phosphomimetic (IRF7, Homo sapiens, UniProt Q92985, residues 1-503, S471D/S472D/S475D/S476D/S477D/S483D/S484D/S487D)
Sequence of UniProt Q92985 (whole entry, unmodified, looked up): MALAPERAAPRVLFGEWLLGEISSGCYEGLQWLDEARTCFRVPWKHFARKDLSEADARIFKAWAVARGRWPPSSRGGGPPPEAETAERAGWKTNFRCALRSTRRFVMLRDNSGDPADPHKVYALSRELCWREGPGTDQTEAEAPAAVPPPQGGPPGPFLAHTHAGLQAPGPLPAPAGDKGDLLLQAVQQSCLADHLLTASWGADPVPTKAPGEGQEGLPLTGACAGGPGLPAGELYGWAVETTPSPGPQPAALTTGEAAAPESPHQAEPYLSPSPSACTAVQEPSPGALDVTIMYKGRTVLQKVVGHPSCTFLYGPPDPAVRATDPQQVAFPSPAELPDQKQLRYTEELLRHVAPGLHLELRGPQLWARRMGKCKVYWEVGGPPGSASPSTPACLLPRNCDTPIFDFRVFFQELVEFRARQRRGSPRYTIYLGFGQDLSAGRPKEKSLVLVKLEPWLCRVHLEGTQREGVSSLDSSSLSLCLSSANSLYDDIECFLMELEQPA
Sequence | fitted relative affinity [z-score]
TTAAGACTGGGACTGGGTTAGTGCTAG | -0.889
GACGAACTGGGGTACCGAGACGTGCTA | -0.475
ACACTCTTCTTTTGCTAATTGTGCTAG | 1.96
TAAGGTTTCCTTATCCTTTAGTGCTAG | 1.63
GACGATTTCATTTCCGAGACGTGCTAG | 2.04
TTAGTTTTCAGTCTCGATTAGTGCTAG | 2.96
GACGGACTGCCTTTCCTGACGTGCTAG | 0.735
GACGGTATCCTTATCCTGTCGTGCTAG | 1.44

Other studies, line by line
Substance | target or system | test | test system | setting | scale | quantity | value
BRIX1 (Homo sapiens, UniProt Q8TDN6) | EBNA1BP2 (Homo sapiens, UniProt Q99848) | cross-linking MS | – | hits only | – | interaction screen | cross-linked
CN1CCN(c2ccc3nc(-c4c(N)c5c(F)cccc5[nH]c4=O)[nH]c3c2)CC1 | Serine/threonine-protein kinase PLK2 (PLK2, Homo sapiens, UniProt Q9NYY3) | enzyme activity, inhibitor | – | 0.5 µM | baseline: control | remaining activity | 102%
PRDX3 (Homo sapiens, UniProt P30048) | MDH2 (Homo sapiens, UniProt P40926) | cross-linking MS | – | hits only | – | interaction screen | cross-linked
HNRNPA1L2 (Homo sapiens, UniProt Q32P51) | HNRNPAB (Homo sapiens, UniProt Q99729) | cross-linking MS | – | hits only | – | interaction screen | cross-linked
NCL (Homo sapiens, UniProt P19338) | C16orf87 (Homo sapiens, UniProt Q6PH81) | cross-linking MS | cell fractions | added: DSSO | – | cross-linked residues | K87 to K79

A few entries again (other studies, line by line):
Substance | target or system | test | test system | setting | scale | quantity | value
PRDX3 (Homo sapiens, UniProt P30048) | MDH2 (Homo sapiens, UniProt P40926) | cross-linking MS | – | hits only | – | interaction screen | cross-linked
HNRNPA1L2 (Homo sapiens, UniProt Q32P51) | HNRNPAB (Homo sapiens, UniProt Q99729) | cross-linking MS | – | hits only | – | interaction screen | cross-linked
NCL (Homo sapiens, UniProt P19338) | C16orf87 (Homo sapiens, UniProt Q6PH81) | cross-linking MS | cell fractions | added: DSSO | – | cross-linked residues | K87 to K79
